Assay results collected from several papers.
Lines come from different studies, so protocols differ.
Organism: Enterococcus faecalis

| SMILES | assay | system | conditions | MIC |
| --- | --- | --- | --- | --- |
| Cc1cc(/C=C2\Sc3ccccc3N2CCCN2CCCC2)c2ccccc2[n+]1C | microbial growth, broth dilution | ATCC29212 | – | 64 µg/mL |
| COC1CCN(Cc2cc(N(C)C)c3c(c2O)C(=O)C2=C(O)[C@]4(O)C(=O)C(C(N)=O)=C(O)[C@@H](N(C)C)[C@@H]4C[C@@H]2C3)CC1 | – | JH2-2(pMV158), Tet L efflux | – | 1 µg/mL |
| COc1ccc2c(c1CC=C(C)C)O[C@H]1c3cc(CC=C(C)C)c(O)cc3OC[C@@H]21 | – | ATCC 29212 | – | 128 µg/mL |
| CNCc1cc(N(C)C)c2c(c1O)C(=O)C1=C(O)[C@]3(O)C(=O)C(C(N)=O)=C(O)[C@@H](N(C)C)[C@@H]3C[C@@H]1C2 | – | JH2-2(pMV158), Tet L efflux | – | 8 µg/mL |
| CC(=O)[O][Ag]=[c]1n(C)ccn1CC(O)c1ccccc1 (stereo not shown) | broth dilution | ATCC 19433 | 18 h, 37 °C | 20 µg/mL |
| CN(C)c1cc(CN2CCCCCC2)c(O)c2c1C[C@H]1C[C@H]3[C@H](N(C)C)C(O)=C(C(N)=O)C(=O)[C@@]3(O)C(O)=C1C2=O | microbial growth, broth dilution | – | – | 1 µg/mL |
| C/C(=N/NC(=N)N)c1nnn(-c2ccc(C#CC(C)(C)C)cc2)c1C | microbial growth, broth dilution | ATCC51299 | – | 8 µg/mL |
| COc1cccc(C2Nc3ccccc3C3=[O+][Cu-2]4([Cl])[O]c5c(cccc5OC)C=[N+]4N32)c1O (stereo not shown) | broth microdilution | ATCC 29213 | 24 h | > 256 µg/mL |
| CNC(CC(C)C)C(=O)NC1C(=O)NC(CC(N)=O)C(=O)NC2C(=O)NC3C(=O)NC(C(=O)NC(C(=O)NCCNC(=N)N)c4cc(O)cc(O)c4-c4cc3ccc4O)C(O)c3ccc(c(Cl)c3)Oc3cc2cc(c3OC2OC(CO)C(O)C(O)C2OC2CC(C)(N)C(O)C(C)O2)Oc2ccc(cc2Cl)C1O (stereo not shown) | broth microdilution | ATCC BAA-2573 VanA | – | 8 µg/mL |
| CC1CCN(CCCN2/C(=C/c3cc(/C=C/c4c[nH]c5ccccc45)[n+](C)c4ccccc34)Sc3ccccc32)CC1 | microbial growth, broth dilution | ATCC29212 | – | > 64 µg/mL |
| CN(C)c1cc(CNCCC(C)(C)C)c(O)c2c1C[C@H]1C[C@H]3[C@H](N(C)C)C(O)=C(C(N)=O)C(=O)[C@@]3(O)C(O)=C1C2=O | – | JH2-2(pMV158), Tet L efflux | – | 1 µg/mL |
| COc1cc(Cc2cnc(N)nc2N)cc(/C=C/C(=O)N2N=Cc3ccccc3C2c2ccccc2C)c1OC (stereo not shown) | microbial growth, broth dilution | ATCC29212 | – | 0.125 µg/mL |
| CNC(CC(C)C)C(=O)NC1C(=O)NC(CC(N)=O)C(=O)NC2C(=O)NC3C(=O)NC(C(=O)NC(C(=O)NC(CCCNC(N)=O)C(=O)OC)c4cc(O)cc(O)c4-c4cc3ccc4O)C(O)c3ccc(c(Cl)c3)Oc3cc2cc(c3OC2OC(CO)C(O)C(O)C2OC2CC(C)(N)C(O)C(C)O2)Oc2ccc(cc2Cl)C1O (stereo not shown) | broth microdilution | BM 4166 VanA | – | 63 µg/mL |
| COCCOC(=O)NCc1cc(N(C)C)c2c(c1O)C(=O)C1=C(O)[C@]3(O)C(=O)C(C(N)=O)=C(O)[C@@H](N(C)C)[C@@H]3C[C@@H]1C2 | microbial growth, broth dilution | – | – | 4 µg/mL |
| CC(=NNC(=N)N)c1nnn(-c2ccc(C#CC3(O)CCCCC3)cc2)c1C | microbial growth, broth dilution | ATCC51299 | – | 8 µg/mL |
| COc1cc(Cc2cnc(N)nc2N)cc(/C=C/C(=O)N2N=Cc3ccccc3C2c2ccc(F)cc2)c1OC (stereo not shown) | microbial growth, broth dilution | ATCC29212 | – | 0.125 µg/mL |
| CO[C@@H](C(N)=O)[C@H](NC(=O)c1ccc(NC(=O)c2ccc([N+](=O)[O-])cc2)cc1)C(=O)Nc1ccc(C(=O)Nc2ccc(C(=O)Nc3ccc(C(=O)O)cc3)c(O)c2OC(C)C)cc1 | microbial growth | ATCC29212 | – | 1 µg/mL |

| SMILES | assay | system | conditions | MIC |
| --- | --- | --- | --- | --- |
| COCCNCc1cc(N(C)C)c2c(c1O)C(=O)C1=C(O)[C@]3(O)C(=O)C(C(N)=O)=C(O)[C@@H](N(C)C)[C@@H]3C[C@@H]1C2 | – | JH2-2(pMV158), Tet L efflux | – | 0.5 µg/mL |
| CCc1[nH]c(C(=O)N[C@@H]2CCN(c3nnc(C(C)(C)O)s3)C[C@@H]2OC)nc1Cl | – | ATCC 51299 | – | 0.5 µg/mL |
| CC(=O)NCc1cc(N(C)C)c2c(c1O)C(=O)C1=C(O)[C@]3(O)C(=O)C(C(N)=O)=C(O)[C@@H](N(C)C)[C@@H]3C[C@@H]1C2 | microbial growth, broth dilution | – | – | 2 µg/mL |
| N#Cc1ccc2cccc(O)c2n1 | microbial growth, agar dilution | ATCC29212 | – | > 1500 µM |
| c1ccc(CN2CCOCCOCCN(CCCCCCCCCCN3CCOCCOCCN(CCCCCCCCCCN4CCOCCOCCN(Cc5ccccc5)CCOCCOCC4)CCOCCOCC3)CCOCCOCC2)cc1 | microbial growth | – | – | 6 µM |
| Oc1c(Br)cc(Br)c2nc3cc(C(F)(F)F)ccc3nc12 | microbial growth, broth dilution | OG1RF | – | 0.78 µM |
| CC1=C[C@@H](C)[C@H]2[C@@H]3C(=O)C(Cl)(Cl)C(=O)[C@H](C)C(=O)O[C@@H](C)/C=C/C=C\[C@@H](C)[C@@H]3C=C[C@@H]2C1 | microbial growth, broth dilution | – | – | 0.025 µg/mL |
| CNC(CC(C)C)C(=O)NC1C(=O)NC(CC(N)=O)C(=O)NC2C(=O)NC3C(=O)NC(C(=O)NC(C(=O)NC(CCCNC(=N)N)C(N)=O)c4cc(O)cc(O)c4-c4cc3ccc4O)C(O)c3ccc(c(Cl)c3)Oc3cc2cc(c3OC2OC(CO)C(O)C(O)C2OC2CC(C)(N)C(O)C(C)O2)Oc2ccc(cc2Cl)C1O (stereo not shown) | broth microdilution | BM 4166 VanA | – | 16 µg/mL |
| COc1cc(Cc2cnc(N)nc2N)cc(/C=C/C(=O)N2N=Cc3ccccc3C2c2ccccc2)c1OC (stereo not shown) | microbial growth, broth dilution | ATCC29212 | pH 7 | 0.06 to 0.125 µg/mL |
| CCCCCCSCC1OC(OC2C(N)CC(N)C(OC3OC(CN)C(O)CC3N)C2O)C(O)C(N)C1O (stereo not shown) | – | ATCC 29212 | – | > 150 µg/mL |
| Cc1csc(NCc2cc(N(C)C)c3c(c2O)C(=O)C2=C(O)[C@]4(O)C(=O)C(C(N)=O)=C(O)[C@@H](N(C)C)[C@@H]4C[C@@H]2C3)n1 | – | JH2-2(pMV158), Tet L efflux | – | 4 µg/mL |
| CNC(CC(C)C)C(=O)NC1C(=O)NC(CC(N)=O)C(=O)NC2C(=O)NC3C(=O)NC(C(=O)NC(C(=O)NCCCCCCNC(=N)N)c4cc(O)cc(O)c4-c4cc3ccc4O)C(O)c3ccc(c(Cl)c3)Oc3cc2cc(c3OC2OC(CO)C(O)C(O)C2OC2CC(C)(N)C(O)C(C)O2)Oc2ccc(cc2Cl)C1O (stereo not shown) | broth microdilution | BM 4166 VanA | – | 16 µg/mL |
| CCC(CC)C1c2ccccc2C=NN1C(=O)/C=C/c1cc(Cc2cnc(N)nc2N)cc(OC)c1OC (stereo not shown) | microbial growth, broth dilution | ATCC29212 | – | 0.5 µg/mL |
| CNC(CC(C)C)C(=O)NC1C(=O)NC(CC(N)=O)C(=O)NC2C(=O)NC3C(=O)NC(C(=O)NC(C(=O)NCCCCNC(=N)N)c4cc(O)cc(O)c4-c4cc3ccc4O)C(O)c3ccc(c(Cl)c3)Oc3cc2cc(c3OC2OC(CO)C(O)C(O)C2OC2CC(C)(N)C(O)C(C)O2)Oc2ccc(cc2Cl)C1O (stereo not shown) | broth microdilution | ATCC BAA-2573 VanA | – | 4 µg/mL |
| Oc1c(Cl)cc(Cl)c2cccnc12 | microbial growth, agar dilution | ATCC29212 | – | 37.4 µM |
| COc1cc(Cc2cnc(N)nc2N)cc(/C=C/C(=O)N2N=Cc3ccccc3C2C=C(C)C)c1OC (stereo not shown) | – | ATCC 29212 | racemate | 0.06 to 0.125 µg/mL |
| CC1(C)S[C@@H]2[C@H](NC(=O)[C@H](NC(=O)C3=C(O)C(c4ccccc4F)NC3=O)c3ccccc3)C(=O)N2[C@H]1C(=O)O (stereo partly shown) | microbial growth, broth dilution | ATCC33186 | – | 25 µg/mL |
